# Experimental data collected from several papers.
# Numbered parts are unrelated; each lists some results of a single study.

# Sample 1
# Target: Histone acetyltransferase KAT6A, winged helix 2, GST fusion (KAT6A, Homo sapiens, UniProt Q92794, residues 85-181)
# Technique: protein binding microarray
# Form: double-stranded DNA, one strand shown
# Medium: in vitro
# Tested at: not given
# Notes: 8-mer, flanks averaged, mean of 2 arrays, mostly near background
# Baseline: not given
# Direction: higher = stronger binding
# Target sequence (chain): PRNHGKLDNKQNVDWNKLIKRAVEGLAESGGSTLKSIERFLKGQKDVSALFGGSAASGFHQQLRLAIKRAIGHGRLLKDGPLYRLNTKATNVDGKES
Oligonucleotide,E-score
ACTATTAT,-0.0365
ACCACGAT,-0.112
GCCAATCA,-0.0934
AAGCAAGC,0.0706
GAGCCGGA,0.256
AACGAAAT,0.0873
CTGCAAGA,0.117
CTGATCAC,-0.0378
TACTCTAA,-0.127
GTATTAAC,0.0378
AGCAAAAG,-0.0158
AATATTGA,0.166
TAATTATA,0.137
CACCAGAG,-0.0306
CCAAAAGG,0.0966
AGGGGCTA,0.0274
GGCTGTGA,-0.0253
TGGATGAA,0.0582
CGCATAAA,0.061
ACAAACTC,0.0919
CTTGATAA,0.155
ACGATAAG,-0.126
TCACCCGA,0.0894
ACCATCCA,-0.047
GAGGACGC,0.0889

# Sample 2
# Target: Interferon regulatory factor 7, full length, phosphomimetic (IRF7, Homo sapiens, UniProt Q92985, residues 1-503, S471D/S472D/S475D/S476D/S477D/S483D/S484D/S487D)
# Chain of UniProt Q92985 (whole entry, unmodified, looked up): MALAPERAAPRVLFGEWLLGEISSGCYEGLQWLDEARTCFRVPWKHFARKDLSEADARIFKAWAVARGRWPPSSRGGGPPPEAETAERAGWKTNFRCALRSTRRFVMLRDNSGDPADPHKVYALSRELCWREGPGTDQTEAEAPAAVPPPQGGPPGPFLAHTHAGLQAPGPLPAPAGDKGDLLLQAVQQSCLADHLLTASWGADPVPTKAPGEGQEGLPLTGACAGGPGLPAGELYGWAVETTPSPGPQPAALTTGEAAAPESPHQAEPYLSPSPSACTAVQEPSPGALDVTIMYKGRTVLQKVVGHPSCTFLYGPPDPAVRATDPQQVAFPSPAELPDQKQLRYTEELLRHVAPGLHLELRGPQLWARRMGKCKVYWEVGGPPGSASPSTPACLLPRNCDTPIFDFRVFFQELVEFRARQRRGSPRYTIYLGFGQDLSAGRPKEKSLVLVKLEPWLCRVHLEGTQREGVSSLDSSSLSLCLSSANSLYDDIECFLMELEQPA
# Technique: protein-binding microarray
# Form: double-stranded DNA, one strand shown
# Medium: in vitro
# Tested at: 2200 nM top
# Notes: 60-bp whole probe
# Together with: salmon DNA 0.4 mg/ml
# Baseline: random background probes
# Direction: higher = stronger binding
# All sequences stand within: GCCTAGCAC … GTCTTGATTCGCTTGACGCTGCTG
Oligonucleotide,fitted relative affinity [z-score]
TTAGGACTGGACACTGGGTCAGTGCTA,-0.994
GACGGTATCCTTATCATGACGTGCTAG,0.626
TTTGGACTGCTTTTCCTTTAGTGCTAG,1.86
CCAGTGCTTGCTCCCCTGCAGTGCTAG,-0.346
GACGGTTCCCTTTTCGTGACGTGCTAG,2.58
TTAGGTAGCCTACTGCTTTAGTGCTAG,-0.0711
TCCCAATTCTCTTTTCACTTGTGCTAG,2.49
GACGGTTTCCTTTTCCTCACGTGCTAG,5.6
GACGAACTGGGGTAACGAGACGTGCTA,-0.0974
GACGAAGTGGGGACTGGAGACGTGCTA,-0.338
GACGATTTCCGGTTTCGAGACGTGCTA,5.77
GGCGGTTTCGACTTTCGGGACGTGCTA,8.4
GACGGTTTCCTCTTCCTGACGTGCTAG,3.43
TTAGGTCTCCTACTGCGTTAGTGCTAG,0.391
TCAATTTCCATTATTGCACTGTGCTAG,2.21
GACGATCTCAATCTCGAGACGTGCTAG,0.219
TTAGGTATCCTAATCCTTTAGTGCTAG,0.484
TCTTTTTGCACTCTCTACATGTGCTAG,2.58
TTAGATATCAGACTGTATTAGTGCTAG,-0.138
GACGGACTGAACACTGGGGACGTGCTA,-0.469
TTAGGACTTGACTATCGGTTAGTGCTA,-0.0575
GACGGTTTTGGGTATCGGGACGTGCTA,1.28
TTAGGTCTCGATATCGGTTAGTGCTAG,0.745
TCATATTTATAAATTATACTGTGCTAG,0.401
TCACATGTCTGTGTCACACTGTGCTAG,1.34

# Sample 3
# Target: RNA binding protein fox-1 homolog 2, RRM domain, GST-SBP tag (RBFOX2, Homo sapiens, UniProt O43251-10, residues 100-194)
# Technique: RNA Bind-n-Seq
# Form: RNA
# Medium: in vitro
# Tested at: 365 nM
# Notes: natural RNA segment, single round, ends assumed
# Baseline: no-protein control
# Direction: higher = stronger binding
# All sequences stand within: GGGAGUUCUACAGUCCGACGAUC … UGGAAUUCUCGGGUGCCAA
# Construct (chain): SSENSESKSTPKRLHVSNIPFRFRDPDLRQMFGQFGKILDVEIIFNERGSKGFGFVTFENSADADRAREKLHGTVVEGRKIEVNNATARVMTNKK
Oligonucleotide,RBNS enrichment (R)
GCAAAUAGUGUUCUCAUCUCAAAGCAAACUAUCAUUCCAGAAGGAAAAGUGUGUCAGGGCAAGCAGACAACACAAUUUCCUAUCAGAAUAUGUCCCUCAACCCCCGAAAC,0.881
CAAGAUAGAGGCAGACCUGACUGUUUCUUGAGGGUCCAUCAGGCAUCUCCAGGAGCUGGCCAGUUAUCUUAGAAAACAACUGAAUGGAAUAUUUUUGUACCUGAUGUUUC,0.391
CUGCCAUGGGGCUGCUUCCCUGUCCCUUCCCUCCCCUUUGCUGGCCUACUCUGGCAUAAUUCAAGUGUCUUCUUGCCUUGGGGAUCCUUAGUGGCAUCAAAUGGCAACAU,0.652
GGGAUGCCACGGUCGCCUCUGAGAAGGAAUCAGUCAUGUAAACCCCGGGAGGGACCUUCCCUGCCCUGCUGGGGGUGCUCUUUGGACACUGGAUUAUGAGGAAUGGAUAA,1.28
GGUAAACUAAGCUAGUUUAACACUUGAGCAAAUGCUUAAGAAGGAAUUAAAAAAAAAAAGCUUUGCCAAUAGCUAAAAAGUACAAGCUAUUAAAAAUCAGAUUGAAAAGU,0.482
CUUGACAAAGUCCCAAGUGCUCAGGACUUUUAGCCCUGUCUACUUUGGCUUGGUUUGGAUGAUUCUUAAGUUUAUUAGCCUAGUGAUGGCCAAAAAGUACUUGACUUAAG,0.262
UGGGCGGCUGUGGCGUCAGGAUGGAGUCCUAGCUGUGACCUGUGCCCAGGAGGGCGUGAUCCGAGUGAAGCCCCAGGUCUCAGAGAGCAAGCUGUAGCCAGAGGUACCAG,0.372
ACACUUGCCCCGCCCUCCCACACCUGCUUGGGAGGCCAGAGAGGCCAGACAAGCCGAGAGCCCCUUCUGUUGUGGGCAGCCUGGGUUUGCAGGCCUGCACAGGCUGGGGA,4.62
GGUGGCCUGAGUUGUUUAUGUUGGCAGAAGGUUGACAUUGGAUGCUCGAUUGCUUCAGCCUCACCGGGGCAUUGAAUCAUCAUUUGUUGAAUGGCAACAGGUUUGCUGGG,1.85
AGGAGGGUUUUGUUCUGUCUGUGUCGCCUCUCCGCCGCACAGAAUCGAUGUGUGUGAUAUUCAGAGACUGGAGGAGCUGCUGACAUUAUCCUGUGUUUAGAUGCUUUAAU,2.84
UUAUUUUUUACAACCGGACCUCCACCCCCAACUUCCUCCAGCCCAGCUGGGCUUCCUUUGUUGGAGUCAACUGUUGAUGCUUCCAGGCCAAACUGGCUUCCUCUCCUCCU,0.406
AGCUGAGAAUUUAAACCUAUUAUUGUUAUAAUGAAAGAAUGACAUUUAUGCUUUGAAAGCUCUCGAGUUGUUAAAGAAAAUGUAUAUCUCGAAUAGAGAAGGGGAAACUC,0.33

# Sample 4
# Target: Protein max, full length (MAX, Homo sapiens, UniProt P61244-2, residues 1-151)
# Technique: protein-binding microarray
# Form: double-stranded DNA, one strand shown
# Medium: in vitro
# Tested at: not given
# Notes: k-mer, scored over probes, only values ≥0.25
# Direction: higher = stronger binding
Oligonucleotide,E-score
AGCACGCC,0.375
ACATGCCA,0.384
AGGGTGGG,0.266
CACGCACG,0.403
CGGCACGC,0.382
ACGTGCAT,0.454
CGGACACG,0.357
AATGTGAC,0.33
GCATGTCC,0.353
CACACGCA,0.319
AAGGCCAC,0.259
AGCCGCAT,0.296
AAGGCATG,0.369
CCATGCGG,0.459
ATGCTTAA,0.301
CGCGGGCA,0.322
CCGTGTCA,0.313
AACGAGGA,0.29
AGAACACG,0.39
TGTGACAA,0.268
GTGCCCAA,0.255
ATGTGGCG,0.365
CACGGGGC,0.369
GTGTAGCA,0.302
CAGACACG,0.358

# Excerpt of the above (sample 4):
Oligonucleotide,E-score
ACGTGCAT,0.454
CGGACACG,0.357
AATGTGAC,0.33
GCATGTCC,0.353
CACACGCA,0.319
AAGGCCAC,0.259
AGCCGCAT,0.296
AAGGCATG,0.369
CCATGCGG,0.459
ATGCTTAA,0.301
CGCGGGCA,0.322
CCGTGTCA,0.313
AACGAGGA,0.29
AGAACACG,0.39
